Assay results of several laboratories.
Compare with care: the assays were run in different laboratories. ± marks the error that the study gave.
UCHL1: Ubiquitin carboxyl-terminal hydrolase isozyme L1 (UCHL1, Homo sapiens, UniProt P09936)
UniProt P09936, sequence (whole entry, looked up): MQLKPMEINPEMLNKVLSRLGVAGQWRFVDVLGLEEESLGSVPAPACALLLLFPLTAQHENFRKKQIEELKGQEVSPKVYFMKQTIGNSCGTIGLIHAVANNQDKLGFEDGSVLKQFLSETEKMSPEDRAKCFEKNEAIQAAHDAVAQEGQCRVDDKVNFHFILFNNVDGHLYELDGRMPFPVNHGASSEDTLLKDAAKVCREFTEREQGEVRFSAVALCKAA
UniProt Q07794, sequence (whole entry, looked up): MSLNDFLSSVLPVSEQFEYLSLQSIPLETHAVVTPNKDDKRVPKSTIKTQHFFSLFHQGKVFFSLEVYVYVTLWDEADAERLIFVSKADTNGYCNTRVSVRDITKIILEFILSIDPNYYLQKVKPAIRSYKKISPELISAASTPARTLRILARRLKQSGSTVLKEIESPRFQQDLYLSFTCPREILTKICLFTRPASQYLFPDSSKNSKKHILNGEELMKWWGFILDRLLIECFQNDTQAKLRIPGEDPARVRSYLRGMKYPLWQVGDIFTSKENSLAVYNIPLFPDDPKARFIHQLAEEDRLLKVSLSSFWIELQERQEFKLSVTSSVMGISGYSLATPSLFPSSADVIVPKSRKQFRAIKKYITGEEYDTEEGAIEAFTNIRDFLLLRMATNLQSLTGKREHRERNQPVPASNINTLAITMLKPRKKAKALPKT

SMILES = Cc1ccc(C(=O)C#Cc2ccc(F)c(F)c2)cc1; tested on = Pseudomonas aeruginosa; assay = static biofilm; test system = PA14; conditions = 10 µM, 24 h; how to read = reference: DMSO; measurement = biofilm formation; result = 53%
SMILES = CC(C)(C)c1ccc(S(=O)(=O)/C=C/C#N)cc1; tested on = Toxoplasma gondii; assay = parasite growth, luciferase reporter; test system = HFF, tachyzoite; conditions = 72 h; measurement = EC50; result = 15 µM
SMILES = OC(CCN1CCCCC1)(c1ccccc1)C1CC2C=CC1C2 (centres unmarked); assay = resting-state EEG; test system = healthy elderly humans; conditions = oral, 2 mg, eyes closed, LS mean; measurement = EEG Beta3-power Pz-O2; result = 2.2 µV²
SMILES = O=C(O)CNC(=O)Cc1ccccc1; test system = ventricular cardiomyocytes, C57BL/6 mouse; conditions = dose not given, 0.22 s; measurement = sarcomere length; result = 1.63 µm
SMILES = CNC(=O)c1cc(Oc2ccc(NC(=O)Nc3ccc(Cl)c(C(F)(F)F)c3)cc2)ccn1; tested on = CaMKII (rat); assay = kinase activity, inhibitor; conditions = 10 µM; measurement = inhibition; result = -6%
SMILES = Cc1ccccc1NC(=O)C(C#N)=Cc1ccccc1Cl; tested on = UCHL1; assay = covalent, intact protein LC-MS; conditions = 12.5 µM; measurement = labelling; result = 36.8%
SMILES = CCn1cc(-c2cc(Cn3ccnc3)cc3c2CCN([C@H](c2cc(OC)ccn2)C2CC2)C3=O)c(C(F)(F)F)n1; tested on = MDA-MB-453; assay = cell growth, inhibitor; conditions = 120 h; measurement = EC50; result = 0.315 µM
SMILES = O=C(Nc1ccncc1)c1cc([N+](=O)[O-])ccc1Cl; tested on = Toxoplasma gondii; assay = parasite growth; test system = HFF, bradyzoite, glutamine-induced; measurement = EC90; result = 1.28 µM
SMILES = COc1cc(C#CC(=O)C(C)C)ccc1O; tested on = Pseudomonas aeruginosa; assay = static biofilm; test system = PA14; conditions = 10 µM, 24 h, static; how to read = reference: DMSO; measurement = biofilm formation; result = 76%
SMILES = CCOC(=O)c1c(NC(=O)Cn2cnc([N+](=O)[O-])n2)sc2c1CCCC2; tested on = Trypanosoma cruzi; assay = reporter translation, Renilla luciferase mRNA translation; test system = cell-free extract; conditions = 40 µM; how to read = reference: DMSO; measurement = inhibition; result = 4.5%
SMILES = c1coc(-c2n[nH]cc2-c2ccnc3ccccc23)c1; tested on = MKK2 (Candida albicans); assay = kinase binding, MIB/MS competition; test system = Candida albicans lysate; conditions = 1 µM; how to read = reference: DMSO; measurement = log2 fold change; result = -0.15
SMILES = OC[C@H]1O[C@@H]2O[C@H]3[C@H](O)[C@@H](O)[C@@H](O[C@H]4[C@H](O)[C@@H](O)[C@@H](O[C@H]5[C@H](O)[C@@H](O)[C@@H](O[C@H]6[C@H](O)[C@@H](O)[C@@H](O[C@H]7[C@H](O)[C@@H](O)[C@@H](O[C@H]8[C@H](O)[C@@H](O)[C@@H](O[C@H]1[C@H](O)[C@H]2O)O[C@@H]8CO)O[C@@H]7CO)O[C@@H]6CO)O[C@@H]5CO)O[C@@H]4CO)O[C@@H]3CO; tested on = LuxR; assay = Escherichia coli sensor; conditions = 20 µM; how to read = higher = stronger induction; measurement = bioluminescence induction; result = 881 ± 6 RLU
SMILES = O=S1(=O)C=C(N2CCCCC2)c2ccccc21; tested on = Histone acetyltransferase RTT109, with Vps75 (Saccharomyces cerevisiae, UniProt Q07794); assay = enzyme activity, inhibitor, HTS, CPM-based, dose response; measurement = IC50; result = > 125 µM
SMILES = CCn1cc(-c2cc(Cn3ccoc3=N)cc3c2CCN([C@@H](C)c2cc(OC)ccn2)C3=O)c(C(F)(F)F)n1; tested on = U266B1; assay = cell growth; conditions = 120 h; measurement = EC50; result = > 30 µM
SMILES = COc1ccc(C(=O)OC2CCN(C)CC2)cc1; tested on = Trypanosoma cruzi; assay = reporter translation, Renilla luciferase mRNA translation; test system = cell-free extract; conditions = 40 µM; how to read = reference: DMSO; measurement = inhibition; result = 2.8%
SMILES = C[C@H]1C[C@H]2CSC(N)=N[C@@]2(c2nc(NC(=O)c3ccc(OC(F)F)cn3)cs2)CO1; assay = item: total Aβ; test system = healthy adults, plasma; conditions = 125 mg once daily, day 14; how to read = reference: placebo; measurement = percent change from baseline; result = -59.1%
SMILES = CCCCC[C@H](O)CC(=O)CCc1ccc(O)c(OC)c1; tested on = Pseudomonas aeruginosa; assay = static biofilm; test system = PA14; conditions = 10 µM, 24 h, static; how to read = reference: DMSO; measurement = biofilm formation; result = 83%
SMILES = O=C(/C=C/C=C/C=C/C1CCCCC1)NC1=C[C@@](O)(/C=C/C=C/C=C/C(=O)NC2=C(O)CCC2=O)[C@@H]2O[C@@H]2C1=O; tested on = SK-HEP1; assay = cell growth, CellTiter-Glo; conditions = 78 h; measurement = GI50; result = 18.5 µM
SMILES = COc1cccc(C(=O)C#Cc2ccc(O)c(OC)c2)c1; tested on = Pseudomonas aeruginosa; assay = RT-qPCR, item: lasB; test system = biofilm cells; conditions = 10 µM, 24 h; how to read = reference: untreated; measurement = mRNA level; result = 29%
SMILES = O=C1c2ccccc2C(=O)c2c(NCCc3ccc(O)cc3)ccc(NCCc3ccc(O)cc3)c21; tested on = Toxoplasma gondii; assay = parasite growth; test system = HFF, bradyzoite, glutamine-induced; measurement = EC90; result = 11.9 µM
SMILES = CCC(C)C(=O)C#Cc1ccc(O)c(OC)c1 (centres unmarked); tested on = Pseudomonas aeruginosa; assay = static biofilm; test system = PA14; conditions = 10 µM, 24 h; how to read = reference: DMSO; measurement = biofilm formation; result = 80%
SMILES = Oc1ccccc1-c1n[nH]cc1-c1ccnc2ccccc12; tested on = YAK1 (Candida albicans); assay = kinase binding, MIB/MS competition; test system = Candida albicans lysate; conditions = 10 µM; how to read = reference: DMSO; measurement = log2 fold change; result = 0.27
SMILES = COC(=O)C1=C(C)NC(C)=C(C(=O)OC(C)(C)CN(C)CCC(c2ccccc2)c2ccccc2)C1c1cccc([N+](=O)[O-])c1 (centres unmarked); tested on = Toxoplasma gondii; assay = parasite growth; test system = HFF, bradyzoite, alkaline-induced; measurement = EC50; result = 7.8 µM
SMILES = O=C(C#Cc1ccc(F)c(F)c1)c1ccccc1Cl; tested on = Pseudomonas aeruginosa; assay = static biofilm; test system = PA14; conditions = 10 µM, 24 h, static; how to read = reference: DMSO; measurement = biofilm formation; result = 50%
SMILES = N#CC(=Cc1cc([N+](=O)[O-])ccc1Cl)C(N)=O; tested on = UCHL1; assay = covalent, intact protein LC-MS; conditions = 12.5 µM; measurement = labelling; result = 31.5%
SMILES = COc1ccc(C(=O)C#Cc2ccc(F)c(F)c2)cc1; tested on = Pseudomonas aeruginosa; assay = static biofilm; test system = PA14; conditions = 10 µM, 24 h, static; how to read = reference: DMSO; measurement = biofilm formation; result = 88%
SMILES = C[n+]1cc2c3c(ccc2c2ccc4cc5c(cc4c21)OCO5)OCO3; tested on = Toxoplasma gondii; assay = parasite growth; test system = HFF, bradyzoite, glutamine-induced; measurement = EC50; result = 0.375 µM
SMILES = NC(=O)c1cnc2[nH]ccc2c1N[C@@H]1[C@@H]2CC3C[C@H]1C[C@@](O)(C3)C2; assay = flow cytometry; test system = Japanese healthy men, blood; conditions = oral, 30 mg twice daily, 72 h after day 7 dose; how to read = reference: baseline; measurement = regulatory T-cell change; result = -0.28%
SMILES = CC(C)(C)c1cc(/C=C(\C#N)C(N)=S)cc(C(C)(C)C)c1O; tested on = Toxoplasma gondii; assay = parasite growth, luciferase reporter; test system = HFF, tachyzoite; conditions = 72 h; measurement = EC50; result = 2.7 µM
SMILES = Cn1cc(-c2ccc(-c3cncc(Cl)c3N3CCC4(CCNC4=O)CC3)cc2)cn1; tested on = COLO 205; assay = gene expression, microarray, item: ARHGDIG mRNA; conditions = concentration not given, 2 h; how to read = reference: untreated cells; measurement = log2 fold change; result = 3.4
SMILES = Oc1ccc2c(c1)OC[C@]1(O)Cc3cc(O)c(O)cc3[C@H]21; tested on = Toxoplasma gondii; assay = parasite growth; test system = HFF, bradyzoite, alkaline-induced; measurement = EC90; result = 0.068 µM
SMILES = CC(C)NCC(O)c1ccc(O)c(O)c1 (centres unmarked); test system = ventricular cardiomyocytes, C57BL/6 mouse; conditions = dose not given, 0.548 s; measurement = sarcomere length; result = 1.5 µm
SMILES = S=C(S)N1CCCC1; tested on = Toxoplasma gondii; assay = parasite growth, luciferase reporter; test system = HFF, tachyzoite; conditions = 72 h; measurement = EC90; result = 4.5 µM
SMILES = COc1cccc(C(=O)C#Cc2ccc(F)c(F)c2)c1; tested on = Pseudomonas aeruginosa; assay = RT-qPCR, item: rhlA; test system = biofilm cells; conditions = 10 µM, 24 h; how to read = reference: untreated; measurement = mRNA level; result = 18%
SMILES = C[C@H](Oc1ccc(Br)cc1-c1ccon1)C(=O)O; assay = first response peak; test system = human, tibialis anterior muscle; conditions = 50 mg, 15 Hz, single ascending dose; measurement = difference from placebo; result = 5.9%

Repeated from above:
SMILES = CC(C)(C)c1ccc(S(=O)(=O)/C=C/C#N)cc1; tested on = Toxoplasma gondii; assay = parasite growth, luciferase reporter; test system = HFF, tachyzoite; conditions = 72 h; measurement = EC50; result = 15 µM
SMILES = COc1cccc(C(=O)C#Cc2ccc(O)c(OC)c2)c1; tested on = Pseudomonas aeruginosa; assay = RT-qPCR, item: lasB; test system = biofilm cells; conditions = 10 µM, 24 h; how to read = reference: untreated; measurement = mRNA level; result = 29%
SMILES = OC[C@H]1O[C@@H]2O[C@H]3[C@H](O)[C@@H](O)[C@@H](O[C@H]4[C@H](O)[C@@H](O)[C@@H](O[C@H]5[C@H](O)[C@@H](O)[C@@H](O[C@H]6[C@H](O)[C@@H](O)[C@@H](O[C@H]7[C@H](O)[C@@H](O)[C@@H](O[C@H]8[C@H](O)[C@@H](O)[C@@H](O[C@H]1[C@H](O)[C@H]2O)O[C@@H]8CO)O[C@@H]7CO)O[C@@H]6CO)O[C@@H]5CO)O[C@@H]4CO)O[C@@H]3CO; tested on = LuxR; assay = Escherichia coli sensor; conditions = 20 µM; how to read = higher = stronger induction; measurement = bioluminescence induction; result = 881 ± 6 RLU
SMILES = COc1cccc(C(=O)C#Cc2ccc(F)c(F)c2)c1; tested on = Pseudomonas aeruginosa; assay = RT-qPCR, item: rhlA; test system = biofilm cells; conditions = 10 µM, 24 h; how to read = reference: untreated; measurement = mRNA level; result = 18%
SMILES = CCn1cc(-c2cc(Cn3ccnc3)cc3c2CCN([C@H](c2cc(OC)ccn2)C2CC2)C3=O)c(C(F)(F)F)n1; tested on = MDA-MB-453; assay = cell growth, inhibitor; conditions = 120 h; measurement = EC50; result = 0.315 µM
SMILES = NC(=O)c1cnc2[nH]ccc2c1N[C@@H]1[C@@H]2CC3C[C@H]1C[C@@](O)(C3)C2; assay = flow cytometry; test system = Japanese healthy men, blood; conditions = oral, 30 mg twice daily, 72 h after day 7 dose; how to read = reference: baseline; measurement = regulatory T-cell change; result = -0.28%
